Measurements of several laboratories.
Each numbered part is a random draw from the data of one study; scales do not carry over between parts.
Sequence of UniProt Q9UHD2 (whole entry, looked up): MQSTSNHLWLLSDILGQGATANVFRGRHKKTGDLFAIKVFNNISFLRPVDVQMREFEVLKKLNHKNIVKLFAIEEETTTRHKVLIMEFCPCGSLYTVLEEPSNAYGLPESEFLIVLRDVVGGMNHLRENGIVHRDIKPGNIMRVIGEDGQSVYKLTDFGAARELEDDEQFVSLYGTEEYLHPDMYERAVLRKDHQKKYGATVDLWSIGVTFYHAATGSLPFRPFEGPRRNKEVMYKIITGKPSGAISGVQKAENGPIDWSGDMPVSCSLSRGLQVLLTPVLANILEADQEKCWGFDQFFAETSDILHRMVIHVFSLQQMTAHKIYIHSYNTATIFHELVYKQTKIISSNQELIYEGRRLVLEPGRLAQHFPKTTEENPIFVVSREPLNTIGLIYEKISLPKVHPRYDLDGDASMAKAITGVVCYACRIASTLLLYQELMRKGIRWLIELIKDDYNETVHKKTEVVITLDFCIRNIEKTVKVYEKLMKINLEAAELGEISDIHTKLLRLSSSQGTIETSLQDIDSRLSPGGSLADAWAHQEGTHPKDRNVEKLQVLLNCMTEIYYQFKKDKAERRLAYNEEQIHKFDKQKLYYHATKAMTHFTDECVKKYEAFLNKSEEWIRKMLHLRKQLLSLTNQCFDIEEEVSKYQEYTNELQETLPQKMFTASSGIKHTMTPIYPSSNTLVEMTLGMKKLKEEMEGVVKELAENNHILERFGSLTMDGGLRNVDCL
Sequence of UniProt P52333 (whole entry, looked up): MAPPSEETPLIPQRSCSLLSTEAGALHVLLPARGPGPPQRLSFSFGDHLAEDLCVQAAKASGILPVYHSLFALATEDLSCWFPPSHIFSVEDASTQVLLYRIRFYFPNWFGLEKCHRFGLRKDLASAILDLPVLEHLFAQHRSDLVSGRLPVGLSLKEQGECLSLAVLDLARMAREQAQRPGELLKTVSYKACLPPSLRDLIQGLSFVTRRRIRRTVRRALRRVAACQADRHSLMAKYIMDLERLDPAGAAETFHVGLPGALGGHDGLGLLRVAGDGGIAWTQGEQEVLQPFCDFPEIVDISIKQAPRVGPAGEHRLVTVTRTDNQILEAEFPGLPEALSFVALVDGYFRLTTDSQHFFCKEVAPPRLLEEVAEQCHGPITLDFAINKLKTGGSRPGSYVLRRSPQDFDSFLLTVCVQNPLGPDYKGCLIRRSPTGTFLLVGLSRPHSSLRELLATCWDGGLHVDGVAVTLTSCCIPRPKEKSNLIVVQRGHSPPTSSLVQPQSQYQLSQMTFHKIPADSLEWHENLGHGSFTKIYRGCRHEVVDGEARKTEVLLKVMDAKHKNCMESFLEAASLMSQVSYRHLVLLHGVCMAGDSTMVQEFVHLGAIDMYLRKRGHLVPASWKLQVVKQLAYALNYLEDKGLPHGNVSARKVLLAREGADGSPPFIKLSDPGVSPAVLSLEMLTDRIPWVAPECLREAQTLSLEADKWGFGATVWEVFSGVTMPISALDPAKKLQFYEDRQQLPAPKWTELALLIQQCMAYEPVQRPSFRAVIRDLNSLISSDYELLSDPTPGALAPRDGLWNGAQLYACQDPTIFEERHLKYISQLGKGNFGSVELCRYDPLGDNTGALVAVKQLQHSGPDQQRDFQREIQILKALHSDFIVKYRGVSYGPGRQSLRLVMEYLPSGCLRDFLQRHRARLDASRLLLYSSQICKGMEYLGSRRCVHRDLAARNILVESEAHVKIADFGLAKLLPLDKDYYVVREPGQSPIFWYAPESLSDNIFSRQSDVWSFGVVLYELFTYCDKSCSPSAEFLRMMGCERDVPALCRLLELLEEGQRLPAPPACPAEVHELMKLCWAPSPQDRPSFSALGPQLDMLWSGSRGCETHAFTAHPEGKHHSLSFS
Sequence of UniProt P49841 (whole entry, looked up): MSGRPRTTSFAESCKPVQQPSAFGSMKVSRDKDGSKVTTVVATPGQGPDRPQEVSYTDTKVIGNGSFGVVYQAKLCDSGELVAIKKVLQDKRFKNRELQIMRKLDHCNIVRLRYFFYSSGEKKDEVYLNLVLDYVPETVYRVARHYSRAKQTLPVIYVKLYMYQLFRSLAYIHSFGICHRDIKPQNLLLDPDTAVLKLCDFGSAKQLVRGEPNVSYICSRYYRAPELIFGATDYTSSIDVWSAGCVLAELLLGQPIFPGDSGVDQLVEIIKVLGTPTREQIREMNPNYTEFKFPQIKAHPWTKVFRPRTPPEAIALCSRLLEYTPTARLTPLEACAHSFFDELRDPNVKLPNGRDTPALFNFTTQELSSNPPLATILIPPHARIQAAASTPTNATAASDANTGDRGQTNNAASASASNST
Sequence of UniProt Q13188 (whole entry, looked up): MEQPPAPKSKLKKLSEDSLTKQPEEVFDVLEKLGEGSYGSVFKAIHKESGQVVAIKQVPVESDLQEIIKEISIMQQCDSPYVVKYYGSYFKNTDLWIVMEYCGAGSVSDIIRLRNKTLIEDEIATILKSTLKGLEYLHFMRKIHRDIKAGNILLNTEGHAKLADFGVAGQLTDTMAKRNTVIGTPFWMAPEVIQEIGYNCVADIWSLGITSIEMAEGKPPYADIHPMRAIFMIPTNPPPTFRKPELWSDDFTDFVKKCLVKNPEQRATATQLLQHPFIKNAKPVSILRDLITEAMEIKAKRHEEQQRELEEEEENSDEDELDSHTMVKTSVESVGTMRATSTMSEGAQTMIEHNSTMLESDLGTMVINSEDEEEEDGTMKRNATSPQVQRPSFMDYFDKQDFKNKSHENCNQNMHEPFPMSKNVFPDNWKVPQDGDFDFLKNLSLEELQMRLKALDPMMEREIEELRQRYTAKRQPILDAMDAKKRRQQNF
Sequence of UniProt Q15208 (whole entry, looked up): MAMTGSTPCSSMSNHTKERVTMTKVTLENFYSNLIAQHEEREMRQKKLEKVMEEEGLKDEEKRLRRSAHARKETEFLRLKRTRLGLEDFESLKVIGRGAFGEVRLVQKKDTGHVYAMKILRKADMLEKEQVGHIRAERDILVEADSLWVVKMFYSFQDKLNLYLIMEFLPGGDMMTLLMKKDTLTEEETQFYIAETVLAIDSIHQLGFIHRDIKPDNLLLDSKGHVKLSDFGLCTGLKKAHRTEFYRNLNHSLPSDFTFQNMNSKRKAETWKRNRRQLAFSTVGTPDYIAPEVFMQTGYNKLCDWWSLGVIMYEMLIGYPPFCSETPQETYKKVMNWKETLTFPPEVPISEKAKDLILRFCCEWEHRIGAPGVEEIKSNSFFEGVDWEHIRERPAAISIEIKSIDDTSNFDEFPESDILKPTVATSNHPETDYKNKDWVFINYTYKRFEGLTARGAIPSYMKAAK
Sequence of UniProt P78368 (whole entry, looked up): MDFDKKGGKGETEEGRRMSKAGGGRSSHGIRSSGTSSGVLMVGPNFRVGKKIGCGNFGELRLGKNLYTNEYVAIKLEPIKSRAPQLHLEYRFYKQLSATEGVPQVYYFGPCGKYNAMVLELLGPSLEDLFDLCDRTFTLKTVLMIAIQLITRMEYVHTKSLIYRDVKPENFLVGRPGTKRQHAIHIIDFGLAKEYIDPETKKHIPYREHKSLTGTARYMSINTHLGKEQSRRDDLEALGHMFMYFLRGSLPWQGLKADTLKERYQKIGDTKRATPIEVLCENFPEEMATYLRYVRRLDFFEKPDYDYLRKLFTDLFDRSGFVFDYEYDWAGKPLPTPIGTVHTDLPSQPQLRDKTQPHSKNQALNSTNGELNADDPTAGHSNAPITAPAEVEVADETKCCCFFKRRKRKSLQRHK
Sequence of UniProt Q9HC98 (whole entry, looked up): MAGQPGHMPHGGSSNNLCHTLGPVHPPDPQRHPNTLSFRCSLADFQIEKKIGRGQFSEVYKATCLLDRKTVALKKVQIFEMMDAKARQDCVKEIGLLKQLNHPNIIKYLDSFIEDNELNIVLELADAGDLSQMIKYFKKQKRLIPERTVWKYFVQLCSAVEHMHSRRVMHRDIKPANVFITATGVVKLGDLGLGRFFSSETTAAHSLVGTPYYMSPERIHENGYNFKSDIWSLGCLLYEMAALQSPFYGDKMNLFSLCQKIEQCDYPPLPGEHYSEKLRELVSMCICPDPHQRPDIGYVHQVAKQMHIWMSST
Sequence of UniProt Q9H3Y6 (whole entry, looked up): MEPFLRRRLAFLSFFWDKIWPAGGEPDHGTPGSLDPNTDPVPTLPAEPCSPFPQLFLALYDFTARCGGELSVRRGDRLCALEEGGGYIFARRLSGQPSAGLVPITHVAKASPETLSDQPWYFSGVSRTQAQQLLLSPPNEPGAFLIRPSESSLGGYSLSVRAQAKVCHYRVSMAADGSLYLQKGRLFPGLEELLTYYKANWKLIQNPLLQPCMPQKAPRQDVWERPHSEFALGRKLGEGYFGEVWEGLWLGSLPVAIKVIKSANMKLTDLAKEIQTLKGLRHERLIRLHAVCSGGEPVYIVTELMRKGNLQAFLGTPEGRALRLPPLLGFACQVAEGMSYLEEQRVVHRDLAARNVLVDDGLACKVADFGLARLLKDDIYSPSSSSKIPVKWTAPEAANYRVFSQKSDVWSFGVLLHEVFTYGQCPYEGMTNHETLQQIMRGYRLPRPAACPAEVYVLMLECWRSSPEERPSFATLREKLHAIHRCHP
Sequence of UniProt Q8WTQ7 (whole entry, looked up): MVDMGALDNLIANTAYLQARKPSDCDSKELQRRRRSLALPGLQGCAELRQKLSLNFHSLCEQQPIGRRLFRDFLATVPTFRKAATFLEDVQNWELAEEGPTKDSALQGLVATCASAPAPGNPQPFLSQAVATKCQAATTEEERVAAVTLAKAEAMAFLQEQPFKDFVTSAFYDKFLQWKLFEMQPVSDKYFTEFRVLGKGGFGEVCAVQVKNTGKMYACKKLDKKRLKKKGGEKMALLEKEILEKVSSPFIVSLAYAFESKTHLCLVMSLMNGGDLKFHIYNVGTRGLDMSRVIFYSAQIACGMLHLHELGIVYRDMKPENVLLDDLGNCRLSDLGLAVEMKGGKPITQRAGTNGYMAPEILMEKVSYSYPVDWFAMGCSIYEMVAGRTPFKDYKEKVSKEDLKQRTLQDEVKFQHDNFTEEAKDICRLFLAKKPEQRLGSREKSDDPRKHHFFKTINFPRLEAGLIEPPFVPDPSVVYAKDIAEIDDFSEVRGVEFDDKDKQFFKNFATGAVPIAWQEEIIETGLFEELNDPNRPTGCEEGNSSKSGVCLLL

Sample 1 — observed: enzyme activity; mode: inhibitor; concentration: 0.5 µM; baseline: control; endpoint: remaining activity
Structure (SMILES): Cc1nc(Nc2ncc(C(=O)Nc3c(C)cccc3Cl)s2)cc(N2CCN(CCO)CC2)n1
RPS6KA2 (Homo sapiens, UniProt Q15349): 93.9%
TAOK2 (Homo sapiens, UniProt Q9UL54): 86.7%
GRK7 (Homo sapiens, UniProt Q8WTQ7): 103%
WEE1 (Homo sapiens, UniProt P30291): 92.6%
ACVR1B (Homo sapiens, UniProt P36896): 109%
MERTK (Homo sapiens, UniProt Q12866): 103%
GSK3B (Homo sapiens, UniProt P49841): 97.3%
TBK1 (Homo sapiens, UniProt Q9UHD2): 90.8%
NEK6 (Homo sapiens, UniProt Q9HC98): 86.2%
EPHA3 (Homo sapiens, UniProt P29320): 3.46%
ULK3 (Homo sapiens, UniProt Q6PHR2): 103%
JAK3 (Homo sapiens, UniProt P52333): 93.4%
CSNK1G2 (Homo sapiens, UniProt P78368): 97.2%
MAP3K5 (Homo sapiens, UniProt Q99683): 97.3%

Sample 2 — observed: cell-free assay; technique: competition with immobilised ligand; concentration: 1 µM; endpoint: remaining binding
Structure (SMILES): CN(C)c1ncnc(-c2ccc3nc(Nc4cc(CN5CCN(C(=O)CC(F)(F)F)CC5)ccn4)[nH]c3c2)c1Cl
STK38 (Homo sapiens, UniProt Q15208): 80%
STK3 (Homo sapiens, UniProt Q13188): 100%
SRMS (Homo sapiens, UniProt Q9H3Y6): 88%
PIK3CD (Homo sapiens, UniProt O00329): 67%
CIT (Homo sapiens, UniProt O14578): 100%
Tyrosine-protein kinase ABL1, phosphorylated (ABL1, Homo sapiens, UniProt P00519, Q252H): 29%

Sample 3 — species: mouse; matrix: microsomes or S9; concentration: 2 µM; time: 0.5 h; endpoint: remaining compound
CC(C)CCNC(=O)c1c(OCC2CC2)cc(=O)n2c1CCOCC2: 34.2%
CC[S+]([O-])C1CCCCC1NC(=O)NC1CC(C)(C)OC1(C)C (centres unmarked): 75.4%
COC1(c2nc(-c3ccc(Cl)nn3)cs2)CCOCC1: 32.7%
Cn1cc(-c2nn(S(=O)(=O)c3ccc(Br)s3)c(-c3cnn(C)c3)c2Cl)cn1: 0.0123%
CCCN1CCc2[nH]cnc2C12CCN(C(=O)[C@@H]1C[C@@H](O)CN1)CC2: 87%
CC(=O)c1c(NC2CCCc3ccccc32)[nH]c2c(C)cc(Cl)cc2c1=O (centres unmarked): 0.358%

Sample 4 — cell line: HaCaT; concentration: 100 µM; time: 18 h; endpoint: viability
CC1(C)C(C=C(Cl)Cl)C1C(=O)OCc1cccc(Oc2ccccc2)c1 (centres unmarked): 116%
Cc1[nH]cnc1CN1CCc2c(c3ccccc3n2C)C1=O: 56%
O=c1c(-c2ccc(O[C@@H]3O[C@H](CO)[C@@H](O)[C@H](O)[C@H]3O)cc2)coc2cc(O)cc(O)c12: 111%
CC[C@H](C)C(=O)O[C@H]1CCC=C2C=C[C@H](C)[C@H](CC[C@@H]3C[C@@H](O)CC(=O)O3)[C@H]21: 40.7%
O=C(O)c1cc(O)c(O)c(O)c1: 75.1%
Nc1nc2[nH]cc(CCc3ccc(C(=O)N[C@@H](CCC(=O)O)C(=O)O)cc3)c2c(=O)[nH]1: 107%
